# Assay results collected from several papers.
# Parts stem from different laboratories: compare values within a part only. Changes are numbered by the printed parent chain.

# Sample 1
# Target: Hepatocyte nuclear factor 3-beta, forkhead domain (FOXA2, Homo sapiens, UniProt Q9Y261, residues 142-269)
# Technique: protein-binding microarray
# Form: double-stranded DNA, one strand shown
# Sample: in vitro
# Tested at: not given
# Notes: k-mer, scored over probes, only values ≥0.25
# Direction: higher = stronger binding
# Target sequence (chain): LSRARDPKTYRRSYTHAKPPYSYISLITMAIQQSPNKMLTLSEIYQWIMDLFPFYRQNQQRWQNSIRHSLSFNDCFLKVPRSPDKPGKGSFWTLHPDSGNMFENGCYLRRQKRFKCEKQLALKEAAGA
Strand,E-score
AATATTAC,0.322
CGTAATCA,0.312
CTTCAATA,0.287
ACAATACT,0.342
TGACATAA,0.306
CAGATACA,0.304
ACACTATA,0.28
AATGGTCA,0.278

# Sample 2
# Target: HLA class I histocompatibility antigen, A alpha chain, allele A*80:01 (Homo sapiens, UniProt P04439)
# Read-out: peptide-MHC binding
# Form: peptide
# Tested at: concentration not given
Molecule,binding
YYLIKYLHV,inactive
AQSDFMSWV,inactive
CLSDEINHV,inactive

# Sample 3
# Target: FOSL2, bZIP domain (human)
# Technique: DHFR protein complementation
# Sample: yeast
# Notes: single substitutions, most at no-binding floor
# Reference: wild-type JUN-FOS pair
# Direction: higher = stronger binding
# Starting sequence: JUN, bZIP domain (human); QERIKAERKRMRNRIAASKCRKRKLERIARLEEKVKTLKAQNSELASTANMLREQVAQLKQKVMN; partner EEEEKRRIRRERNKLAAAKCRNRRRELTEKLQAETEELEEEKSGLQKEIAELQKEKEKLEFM
Variant,binding fitness [natural log]
A46N,0.053
T37S,0.0348
Q55M,-0.0116
A40R,0.0857
L45T,-1.24
K39P,-1.05
R53L,-0.435
N42G,-0.907

# Sample 4
# Target: CCND1, cyclin fold, Cln2 fusion (human)
# Technique: yeast growth competition, sequencing
# Sample: yeast
# Notes: strong parent motif
# Reference: not given
# Direction: higher = stronger binding
# Starting sequence: viral docking peptide; KGVKRKLFAEDSS
Variant,normalised enrichment score
F8Y,-0.187
R5T,0.28
G2Y,0.703
K6Q,1.79
K6A,0.857
L7G,0.23
L7W,-0.498
K4H,0.543
V3C,2.34
L7D,0.0908
F8T,-0.065
R5N,-0.125
D11T,0.458
L7N,0.0824
D11M,0.198
E10Q,0.338
F8D,-0.183
R5M,0.0151
E10Y,0.143
K4V,1.04
G2N,2.38
D11R,0.231
R5H,-0.111
V3L,0.371
F8A,0.15

# Sample 5
# Target: Centromere-binding protein 1, full length, N-terminal tag (CBF1, Saccharomyces cerevisiae, UniProt P17106, residues 1-351)
# Chain of UniProt P17106 (whole entry, looked up): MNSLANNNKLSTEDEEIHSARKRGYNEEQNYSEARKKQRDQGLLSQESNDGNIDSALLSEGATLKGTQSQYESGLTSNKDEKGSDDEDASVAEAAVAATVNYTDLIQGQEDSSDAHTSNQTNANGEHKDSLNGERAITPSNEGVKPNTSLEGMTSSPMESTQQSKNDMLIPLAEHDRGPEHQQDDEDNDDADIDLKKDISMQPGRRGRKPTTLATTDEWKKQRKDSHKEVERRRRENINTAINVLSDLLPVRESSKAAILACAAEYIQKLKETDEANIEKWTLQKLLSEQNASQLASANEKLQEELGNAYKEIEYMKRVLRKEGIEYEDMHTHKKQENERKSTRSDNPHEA
# Technique: protein-binding microarray
# Form: double-stranded DNA, one strand shown
# Sample: in vitro
# Tested at: 0.8 µM
# Notes: whole 60-bp probe, no competitor
# Direction: higher = stronger binding
# Shared flanks, not repeated: … GTCTTGATTCGCTTGACGCTGCTG
Strand,fluorescence intensity
GAACAATTTTCTCATCACCCCGAAACAACAAAATAG,588 a.u.
GAAACTAATTTAAACAACGTGTATTATTGTGCTTAG,589 a.u.
CTAAAAATTTTTCATTGCGTGGGTACATCCGTGTTC,538 a.u.
GAACTTTGAATTACGCACATGCAGAACTCCTGTTAG,629 a.u.
CTACCTCTTGTTTTCTTCGTGACATTTTTCTCTTTC,588 a.u.
CTAAGAAGAAAAAAGCGCGTGGTACGAGCCGCGTTC,558 a.u.
CTAAAGAAAATAAAGAACGTGATAATGATGAATTTC,1150 a.u.
CTACCAAAGCCGGGTCACCTAACTTATGGCCAATTC,502 a.u.

# A few entries again (sample 5):
Strand,fluorescence intensity
CTAAAGAAAATAAAGAACGTGATAATGATGAATTTC,1150 a.u.
CTAAAAATTTTTCATTGCGTGGGTACATCCGTGTTC,538 a.u.
GAAACTAATTTAAACAACGTGTATTATTGTGCTTAG,589 a.u.
GAACTTTGAATTACGCACATGCAGAACTCCTGTTAG,629 a.u.
CTAAGAAGAAAAAAGCGCGTGGTACGAGCCGCGTTC,558 a.u.
CTACCAAAGCCGGGTCACCTAACTTATGGCCAATTC,502 a.u.
CTACCTCTTGTTTTCTTCGTGACATTTTTCTCTTTC,588 a.u.
GAACAATTTTCTCATCACCCCGAAACAACAAAATAG,588 a.u.
